# Measurements of several laboratories.
# A part holds a random share of what one study measured. “And” joins repeats or separate records; there may be more than shown.
# Chain of UniProt P28221 (whole entry, looked up): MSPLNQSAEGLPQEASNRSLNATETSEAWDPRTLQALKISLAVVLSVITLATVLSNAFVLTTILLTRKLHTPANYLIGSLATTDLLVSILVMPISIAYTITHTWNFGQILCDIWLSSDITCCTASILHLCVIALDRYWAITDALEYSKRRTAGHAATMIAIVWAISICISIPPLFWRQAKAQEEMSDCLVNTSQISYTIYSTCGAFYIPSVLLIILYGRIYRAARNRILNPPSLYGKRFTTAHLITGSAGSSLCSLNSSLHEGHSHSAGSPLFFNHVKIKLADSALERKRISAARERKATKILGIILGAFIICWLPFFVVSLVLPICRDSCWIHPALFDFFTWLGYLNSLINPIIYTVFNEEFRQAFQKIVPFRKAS
# Chain of UniProt P50406 (whole entry, looked up): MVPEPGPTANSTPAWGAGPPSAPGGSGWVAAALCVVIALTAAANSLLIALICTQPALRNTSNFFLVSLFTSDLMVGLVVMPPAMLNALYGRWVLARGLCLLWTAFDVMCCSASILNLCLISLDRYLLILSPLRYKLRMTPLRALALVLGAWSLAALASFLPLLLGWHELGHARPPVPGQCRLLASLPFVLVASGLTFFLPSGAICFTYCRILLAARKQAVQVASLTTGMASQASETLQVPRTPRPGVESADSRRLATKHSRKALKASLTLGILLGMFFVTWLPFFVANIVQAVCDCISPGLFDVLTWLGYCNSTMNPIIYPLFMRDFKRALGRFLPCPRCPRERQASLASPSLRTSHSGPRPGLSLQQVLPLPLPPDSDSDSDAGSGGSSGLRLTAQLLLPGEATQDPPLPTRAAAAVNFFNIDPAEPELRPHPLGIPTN
# Chain of UniProt P35348 (whole entry, looked up): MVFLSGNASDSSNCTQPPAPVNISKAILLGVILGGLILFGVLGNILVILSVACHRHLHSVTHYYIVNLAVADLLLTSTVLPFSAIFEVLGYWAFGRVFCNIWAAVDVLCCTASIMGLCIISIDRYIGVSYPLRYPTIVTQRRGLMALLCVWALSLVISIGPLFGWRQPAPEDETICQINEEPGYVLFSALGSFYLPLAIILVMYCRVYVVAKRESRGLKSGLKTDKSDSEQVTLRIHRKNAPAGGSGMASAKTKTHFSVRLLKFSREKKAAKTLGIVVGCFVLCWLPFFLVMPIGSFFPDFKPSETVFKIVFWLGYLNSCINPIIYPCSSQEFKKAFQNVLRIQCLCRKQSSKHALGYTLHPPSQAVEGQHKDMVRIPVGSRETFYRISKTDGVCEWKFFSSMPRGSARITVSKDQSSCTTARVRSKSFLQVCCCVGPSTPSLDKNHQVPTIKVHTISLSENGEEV
# Chain of UniProt P08588 (whole entry, looked up): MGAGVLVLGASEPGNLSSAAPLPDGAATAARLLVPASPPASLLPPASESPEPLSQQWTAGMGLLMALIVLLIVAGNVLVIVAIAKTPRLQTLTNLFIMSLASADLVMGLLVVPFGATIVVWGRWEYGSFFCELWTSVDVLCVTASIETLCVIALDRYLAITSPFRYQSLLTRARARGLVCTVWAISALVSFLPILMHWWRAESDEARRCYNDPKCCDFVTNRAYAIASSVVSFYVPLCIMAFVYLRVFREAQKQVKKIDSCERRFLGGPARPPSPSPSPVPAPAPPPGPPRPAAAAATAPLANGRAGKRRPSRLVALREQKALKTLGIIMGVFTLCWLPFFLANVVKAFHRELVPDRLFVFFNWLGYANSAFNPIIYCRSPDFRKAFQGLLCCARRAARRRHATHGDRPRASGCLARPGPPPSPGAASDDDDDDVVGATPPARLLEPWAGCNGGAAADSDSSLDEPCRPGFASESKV
# Chain of UniProt Q5BJF2 (whole entry, looked up): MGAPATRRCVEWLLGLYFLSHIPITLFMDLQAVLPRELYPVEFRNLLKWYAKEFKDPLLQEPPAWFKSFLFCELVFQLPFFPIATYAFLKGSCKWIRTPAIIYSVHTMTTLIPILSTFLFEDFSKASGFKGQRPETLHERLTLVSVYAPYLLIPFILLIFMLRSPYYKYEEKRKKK

# Block 1
# Target: Serine/threonine-protein kinase PAK 2 (PAK2, Homo sapiens, UniProt Q13177)
# Chain of UniProt Q13177 (whole entry, looked up): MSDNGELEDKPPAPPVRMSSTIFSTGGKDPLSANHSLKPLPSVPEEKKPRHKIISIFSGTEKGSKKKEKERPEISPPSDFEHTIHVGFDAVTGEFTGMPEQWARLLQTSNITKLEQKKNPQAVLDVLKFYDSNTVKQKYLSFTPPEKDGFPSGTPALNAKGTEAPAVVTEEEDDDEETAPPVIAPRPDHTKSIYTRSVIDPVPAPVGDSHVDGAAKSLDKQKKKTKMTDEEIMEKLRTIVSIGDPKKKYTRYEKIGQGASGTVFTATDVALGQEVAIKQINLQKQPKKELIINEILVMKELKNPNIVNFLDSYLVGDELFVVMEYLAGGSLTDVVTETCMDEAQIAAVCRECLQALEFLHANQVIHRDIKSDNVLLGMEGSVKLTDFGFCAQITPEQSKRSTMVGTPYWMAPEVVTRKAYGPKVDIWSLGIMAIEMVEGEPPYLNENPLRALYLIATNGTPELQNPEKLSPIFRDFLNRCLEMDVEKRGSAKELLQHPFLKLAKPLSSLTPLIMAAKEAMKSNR
# Observed: enzyme activity
# Mode: inhibitor
# Tested at: 0.5 µM
# Baseline: control
Compound,remaining activity
CC(C)[C@H](CO)Nc1nc(Nc2cc(N)cc(Cl)c2)c2ncn(C(C)C)c2n1,95.5%
O=C(CCCc1ccc(-c2ccccc2F)cc1)Nc1ccc(O)cc1,101%
O=C1NC(=O)C(c2cn(CCCO)c3ncccc23)=C1c1cnccn1,105%
Cc1cccc(-c2[nH]c(C(C)(C)C)nc2-c2ccc3c(c2)OCO3)n1,72.4%
O=C(Nc1cccc(Nc2cc(Nc3cccc(C(F)(F)F)c3)ncn2)c1)C1CC1,103%
N#CC(C#N)=C(N)/C(C#N)=C/c1ccc(O)cc1,86%
NCCNc1ncc(C(N)=O)c(Nc2cccc(C(F)(F)F)c2)n1,58.9%
Cc1ccc(Nc2nccc(N(C)c3ccc4c(C)n(C)nc4c3)n2)cc1S(N)(=O)=O,98.9%
COc1cc2nccc(Oc3ccc(NC(=S)NC(=O)c4ccccc4C)cc3)c2cc1OC,91.2%
COc1ccc(CNC(=O)Nc2ncc([N+](=O)[O-])s2)cc1,102%
CN(C)c1ccc(C=C2C(=O)Nc3ccccc32)cc1,102%
Nc1ccc2ncnc(NCCc3ccc(Oc4ccccc4)cc3)c2c1,102%
COc1ccc(OC)c2c(=S)c3ccccc3[nH]c12,104%
Nc1[nH]nc2nc3ccccc3nc12,104%

# Block 2
# Target: DNA polymerase theta, ATPase domain (POLQ, Homo sapiens, UniProt O75417)
# Chain of UniProt O75417 (whole entry, unmodified, looked up): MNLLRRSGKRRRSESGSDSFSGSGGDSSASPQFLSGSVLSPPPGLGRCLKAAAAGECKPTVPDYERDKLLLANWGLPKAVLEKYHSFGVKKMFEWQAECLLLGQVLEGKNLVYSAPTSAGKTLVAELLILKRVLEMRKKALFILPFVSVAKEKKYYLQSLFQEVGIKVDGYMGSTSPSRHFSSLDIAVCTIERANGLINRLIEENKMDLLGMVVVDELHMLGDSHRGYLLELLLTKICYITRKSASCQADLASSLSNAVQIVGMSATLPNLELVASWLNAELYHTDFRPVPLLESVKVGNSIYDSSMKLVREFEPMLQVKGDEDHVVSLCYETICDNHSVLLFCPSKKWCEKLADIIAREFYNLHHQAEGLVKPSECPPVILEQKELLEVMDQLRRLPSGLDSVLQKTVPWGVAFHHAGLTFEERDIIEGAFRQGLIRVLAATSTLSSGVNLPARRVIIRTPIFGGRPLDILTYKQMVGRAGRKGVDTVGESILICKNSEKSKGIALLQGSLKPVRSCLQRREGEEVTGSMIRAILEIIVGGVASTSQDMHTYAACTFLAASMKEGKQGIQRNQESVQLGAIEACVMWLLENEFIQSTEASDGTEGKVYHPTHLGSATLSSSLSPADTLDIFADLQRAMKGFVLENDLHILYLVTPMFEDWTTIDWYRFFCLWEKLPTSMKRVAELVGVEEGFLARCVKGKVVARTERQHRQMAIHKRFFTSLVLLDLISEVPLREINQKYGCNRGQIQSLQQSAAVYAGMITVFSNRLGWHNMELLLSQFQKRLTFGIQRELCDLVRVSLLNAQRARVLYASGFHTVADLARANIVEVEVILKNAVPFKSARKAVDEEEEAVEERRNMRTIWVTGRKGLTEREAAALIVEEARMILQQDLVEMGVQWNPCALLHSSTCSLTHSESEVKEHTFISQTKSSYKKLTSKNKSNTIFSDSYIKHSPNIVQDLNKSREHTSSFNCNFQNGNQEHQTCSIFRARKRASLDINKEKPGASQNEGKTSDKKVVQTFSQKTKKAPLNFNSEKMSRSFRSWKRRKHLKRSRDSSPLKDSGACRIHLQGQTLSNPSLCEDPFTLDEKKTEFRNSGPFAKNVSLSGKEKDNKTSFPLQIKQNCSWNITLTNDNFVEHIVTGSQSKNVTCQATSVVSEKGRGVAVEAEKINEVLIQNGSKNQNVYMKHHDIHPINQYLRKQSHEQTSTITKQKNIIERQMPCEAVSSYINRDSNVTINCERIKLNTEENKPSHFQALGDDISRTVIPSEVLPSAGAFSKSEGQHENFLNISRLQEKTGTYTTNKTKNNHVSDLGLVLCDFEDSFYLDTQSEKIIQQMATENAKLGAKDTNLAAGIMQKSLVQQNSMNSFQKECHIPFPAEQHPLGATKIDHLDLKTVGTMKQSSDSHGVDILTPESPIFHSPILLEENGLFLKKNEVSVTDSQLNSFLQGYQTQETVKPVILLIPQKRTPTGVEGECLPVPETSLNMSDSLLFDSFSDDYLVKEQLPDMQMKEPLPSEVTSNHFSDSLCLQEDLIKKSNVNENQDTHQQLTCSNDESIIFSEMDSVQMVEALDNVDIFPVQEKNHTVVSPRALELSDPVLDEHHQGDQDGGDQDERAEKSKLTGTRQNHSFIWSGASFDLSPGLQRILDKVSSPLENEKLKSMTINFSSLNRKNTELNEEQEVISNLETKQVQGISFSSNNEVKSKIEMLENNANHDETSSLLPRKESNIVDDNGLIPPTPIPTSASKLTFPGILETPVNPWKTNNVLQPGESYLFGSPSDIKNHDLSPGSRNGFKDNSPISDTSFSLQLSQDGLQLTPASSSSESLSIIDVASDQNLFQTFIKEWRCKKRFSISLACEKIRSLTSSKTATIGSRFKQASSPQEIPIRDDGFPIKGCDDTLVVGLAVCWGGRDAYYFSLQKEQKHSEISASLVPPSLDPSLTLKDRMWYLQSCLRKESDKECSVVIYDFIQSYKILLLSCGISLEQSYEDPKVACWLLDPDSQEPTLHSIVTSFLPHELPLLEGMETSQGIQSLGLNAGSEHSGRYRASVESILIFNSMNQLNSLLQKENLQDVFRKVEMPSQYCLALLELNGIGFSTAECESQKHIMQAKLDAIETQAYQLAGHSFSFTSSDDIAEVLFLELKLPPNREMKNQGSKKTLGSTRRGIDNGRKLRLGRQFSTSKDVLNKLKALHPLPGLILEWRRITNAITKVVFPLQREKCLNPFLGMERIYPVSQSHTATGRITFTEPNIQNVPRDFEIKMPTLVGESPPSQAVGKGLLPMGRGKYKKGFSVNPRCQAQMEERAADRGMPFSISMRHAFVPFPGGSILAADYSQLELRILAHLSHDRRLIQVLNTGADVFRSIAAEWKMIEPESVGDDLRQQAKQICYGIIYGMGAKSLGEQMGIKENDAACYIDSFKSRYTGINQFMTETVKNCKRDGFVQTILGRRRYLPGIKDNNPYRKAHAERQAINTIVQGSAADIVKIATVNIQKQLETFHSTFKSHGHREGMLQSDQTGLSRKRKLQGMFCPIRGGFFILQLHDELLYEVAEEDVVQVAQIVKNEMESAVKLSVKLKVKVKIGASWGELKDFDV
# Observed: enzyme activity
# Mode: inhibitor
# Tested at: 77 µM
# Baseline: untreated
Compound,remaining activity
Nc1ncnc2c1nc(Sc1ccc(Cl)cc1)n2C1OC2COP(=O)(O)O[C@@H]2[C@@H]1O (some centres unmarked),97.4%
C[C@H](NC(=O)Cc1cc(F)cc(F)c1)C(=O)N[C@@H]1C(=O)N(C)c2ccccc2-c2ccccc21,94.1%
COc1ccc([C@]2(C#N)CC[C@@H](C(=O)O)CC2)cc1OC1CCCC1,102%
CNCC(O)c1ccc(OC(=O)C(C)(C)C)c(OC(=O)C(C)(C)C)c1 (centres unmarked),91.4%
CCOC(=O)c1c(C)[nH]c(/C=C2\C(=O)Nc3ccccc32)c1C,99.6%
CC[C@H]1OC(=O)[C@H](C)[C@@H](O[C@H]2C[C@@](C)(OC)[C@@H](O)[C@H](C)O2)[C@H](C)[C@@H](O[C@@H]2O[C@H](C)C[C@H](N(C)C)[C@H]2O)[C@](C)(O)C[C@@H](C)[C@@H]2N[C@@H](COCCOC)O[C@H]([C@H]2C)[C@]1(C)O,93.4% and 99.3%
CCCCC1C(=O)N(c2ccccc2)N(c2ccc(O)cc2)C1=O (centres unmarked),99.1%
CO[C@H]1C[C@@H]2CC[C@@H](C)[C@@](O)(O2)C(=O)C(=O)N2CCCC[C@H]2C(=O)O[C@H]([C@H](C)C[C@@H]2CC[C@H](n3cnnn3)[C@H](OC)C2)CC(=O)[C@H](C)/C=C(\C)[C@@H](O)[C@@H](OC)C(=O)[C@H](C)C[C@H](C)/C=C/C=C/C=C/1C,98.8%
C=C1C[C@@]23CC[C@H]4[C@@](C)(CCC[C@@]4(C)C(=O)O)[C@@H]2CC[C@]1(O)C3,98.3%
CCN(CC)CCCCN1c2ccccc2Oc2ccc(Cl)cc21,88.3%
CN(C)[C@@H]1C(O)=C(C(N)=O)C(=O)[C@@]2(O)C(O)=C3C(=O)c4c(O)cccc4[C@@](C)(O)[C@H]3C[C@@H]12,101%

# Block 3
# Structure (SMILES): CNC(=O)c1cc(C(=O)N[C@H]2[C@@H]3COC[C@@H]32)cc2c1O[C@H](CF)[C@H]2c1ccccc1
# Tested at: 10 µM
target,assay,inhibition
"HTR1E (Homo sapiens, UniProt P28566)",cell-free assay,-12.8%
"HTR1D (Homo sapiens, UniProt P28221)","binding, radioligand binding",-5.14%
"DRD4 (Homo sapiens, UniProt P21917)","binding, radioligand binding",81.6%
"DRD3 (Homo sapiens, UniProt P35462)","binding, radioligand binding",81.8%
"ADRA1A (Homo sapiens, UniProt P35348)","binding, radioligand binding",-4.55%
"ADRA2A (Homo sapiens, UniProt P08913)","binding, radioligand binding",1.67%
"HTR2B (Homo sapiens, UniProt P41595)",cell-free assay,28.2%
"ADRB1 (Homo sapiens, UniProt P08588)","binding, radioligand binding",6.03%
"ADRB2 (Homo sapiens, UniProt P07550)","binding, radioligand binding",17.9%
"DRD2 (Homo sapiens, UniProt P14416)","binding, radioligand binding",60.9%
"HTR6 (Homo sapiens, UniProt P50406)","binding, radioligand binding",16.8%
"SIGMAR1 (Homo sapiens, UniProt Q99720)","binding, radioligand binding",28.4%
"HTR1B (Homo sapiens, UniProt P28222)","binding, radioligand binding",-0.1%
"HRH3 (Homo sapiens, UniProt Q9Y5N1)","binding, radioligand binding",-9.57%
"CHRM5 (Homo sapiens, UniProt P08912)","binding, radioligand binding",2.23%
"TMEM97 (Homo sapiens, UniProt Q5BJF2)","binding, radioligand binding",14.3%

# Block 4
# Cell line: A-375
# Tested at: 100 µM
# Time: 36 h
Structure (SMILES),viability
CC(C)OC(=O)C(C(=O)OC(C)C)=C1SC=CS1,10.4%
CCCCCCOC(=O)NC(=N)c1ccc(NCc2nc3cc(C(=O)N(CCC(=O)OCC)c4ccccn4)ccc3n2C)cc1,1.88%
Cc1ncc([N+](=O)[O-])n1C,108%
O=C(O)c1cccnc1Nc1cccc(C(F)(F)F)c1,95.9%
CCC(C)(C)C(=O)O[C@H]1C[C@@H](C)C=C2C=C[C@H](C)[C@H](CC[C@@H]3C[C@@H](O)CC(=O)O3)[C@H]21,28.4%
CC(C)(C)c1ccc(C(O)CCCN2CCC(C(O)(c3ccccc3)c3ccccc3)CC2)cc1 (centres unmarked),1.74%
CC[C@H]1OC(=O)[C@H](C)[C@@H](O[C@H]2C[C@@](C)(OC)[C@@H](O)[C@H](C)O2)[C@H](C)[C@@H](O[C@@H]2O[C@H](C)C[C@H](N(C)C)[C@H]2O)[C@](C)(O)C[C@@H](C)/C(=N\OCOCCOC)[C@H](C)[C@@H](O)[C@]1(C)O,97.1%
COc1cc(C(=O)NC2CCCNC2)cc(OC)c1OC (centres unmarked),103%
NC[C@@H]1O[C@H](O[C@H]2[C@@H](O)[C@H](O[C@@H]3[C@@H](O)[C@H](N)C[C@H](N)[C@H]3O[C@H]3O[C@H](CN)[C@@H](O)[C@H](O)[C@H]3N)O[C@@H]2CO)[C@H](N)[C@@H](O)[C@@H]1O,108%

# For quick reference, copied from above (block 1):
Compound,remaining activity
Cc1cccc(-c2[nH]c(C(C)(C)C)nc2-c2ccc3c(c2)OCO3)n1,72.4%
O=C(Nc1cccc(Nc2cc(Nc3cccc(C(F)(F)F)c3)ncn2)c1)C1CC1,103%
N#CC(C#N)=C(N)/C(C#N)=C/c1ccc(O)cc1,86%
NCCNc1ncc(C(N)=O)c(Nc2cccc(C(F)(F)F)c2)n1,58.9%
Cc1ccc(Nc2nccc(N(C)c3ccc4c(C)n(C)nc4c3)n2)cc1S(N)(=O)=O,98.9%
COc1cc2nccc(Oc3ccc(NC(=S)NC(=O)c4ccccc4C)cc3)c2cc1OC,91.2%
